Experimental data collected from several papers.
A part holds a random share of what one study measured. Positions count from the first letter of the parent shown.

Sample 1 — method: RNA Bind-n-Seq; molecule type: RNA; sample: in vitro; concentration: 365 nM; reference: no-protein control; reading: higher = stronger binding
Target: RNA binding protein fox-1 homolog 2, RRM domain, GST-SBP tag (RBFOX2, Homo sapiens, UniProt O43251-10, residues 100-194)
Notes: natural RNA segment, single round, ends assumed
Constant ends, left off below: GGGAGUUCUACAGUCCGACGAUC … UGGAAUUCUCGGGUGCCAA
Construct (chain): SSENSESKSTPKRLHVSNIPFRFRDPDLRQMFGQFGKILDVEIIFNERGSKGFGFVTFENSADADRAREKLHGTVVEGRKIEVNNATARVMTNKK
| Strand | RBNS enrichment (R) |
| --- | --- |
| UAUGAGCCUGGUUUGUGCAAAAUUAAAUCAGAGGCUUCUACAACAUGGUUUAUUUAUGUUGUAGCAAAGUUGGCUCUACAUAAACAUUGUUCUUAUUUUAAAAUUAACAC | 0.47 |
| GCAAGGAUUAGCCAAAUCUUCUUAUUGAAGAAAGAAGAAAAGUGAAGAGUGGUUACCUAUACCUAGCAUAGUACAAUCAGAACCUCGUGGAGACCACCGGGGACAGGCUU | 0.603 |
| AGUGGUUCUUUGAAGCUUAGUGAGGCGGAGGCUGCCAGUGUUGGUACCUGUGGAUUUUCCAAUAGUGAGGGUUAGCUCUGCCUCCAGGGCCCGCUAAGUUCUGCUGAGCA | 0.971 |
| AGGUACUGCCCGCGUUUAAAGGAAGUGCCUUGGCUGGGGCAGCAGUGUCAGCUUGGAUAACUGAAAACACCUACAUCCUACAGCAUAAAGAACUGCUGAGCGAGCUACUG | 0.469 |
| AUCUGAAACGGCAGCUUCUGAGGAAACCCUGACCAACGCCUCCCAGCGCAUCAGCAAGCUUGAGAGGAACGUGGAAGAGCUUAAGCGUAAAGCUGCCCAGAACUCUGGGG | 0.331 |
| AAUGCACACCUGCUGCUCACUUCUUGUGAGGCUGCCUUUUGUGAUCAAAUAACAGGAAGUUCUGCUUUAGAGGAGGGCACGAUGACCAUGUGGCAGUCUGCAAGUGGAAU | 0.417 |
| UUAGGGUUGUUCCUGUUCUUUUAGGUUGGGCGGUGGGUCUGUGUCCUGGUGUUGAGUUUCUGCAAAUUUCUGGGGGUGAUUUCUGUGACUCUGGGCCCACAGCGGGGAGG | 0.587 |
| CUAUCUGCUGCUUCUUAGGUUGCUGUUGUACAUGGAACCAGGACUAGAGAUUUUUUCAGAUUUAUAGACUUAAAAAAUUAGAAUUUUAUUACCAGGCUUUCCUUCUCACC | 0.673 |
| GACUGAAGCACAUGUAAUAUAGACCGUGUAUGUUUACAAUGUUGUGUAUAAAUGGGACAACUCCUCGCCCUCUACCUGUCCCCUCCCCCUUUGGUUGUAUGAUUUUCUUC | 1.22 |
| AGGAUUUGAACCGAGCAGCCAAUCUUUCCAGCCCUCCCCUACCGACCUCUGCCUGGAGACGCAGCAGCCUGUGUCCUCCAGGGCCUCUGGUUUGUUGUAUUAUAGUAUAU | 0.343 |
| AACCGCAAGCUCAAAAUCUUUGUAUAGUUUUGAAAAUUGAGGAGUAGCUUUGUUUGGAAGCCUUUCUGGUGGUGGUUUUUGUUGUUGUUGUUGUUUUGUUGUUUUACUAU | 2.34 |
| ACAUGGCAGGUCUGUAGGGGUCAGACCCGAGCAGCCUGGACUUUACAGUUAUGUGAAACUGUCCACAAAAAGUCAUGGCAAUAAUGGUGUAAAGAAAAUAGUUUCUUGGG | 0.409 |

Sample 2 — method: universal PBM; molecule type: double-stranded DNA, one strand shown; sample: in vitro; concentration: 600 nM; reading: higher = stronger binding
Target: Sal-like protein 4, full length isoform A (SALL4, Homo sapiens, UniProt Q9UJQ4, residues 1-1053)
Sequence of UniProt Q9UJQ4 (whole entry, looked up): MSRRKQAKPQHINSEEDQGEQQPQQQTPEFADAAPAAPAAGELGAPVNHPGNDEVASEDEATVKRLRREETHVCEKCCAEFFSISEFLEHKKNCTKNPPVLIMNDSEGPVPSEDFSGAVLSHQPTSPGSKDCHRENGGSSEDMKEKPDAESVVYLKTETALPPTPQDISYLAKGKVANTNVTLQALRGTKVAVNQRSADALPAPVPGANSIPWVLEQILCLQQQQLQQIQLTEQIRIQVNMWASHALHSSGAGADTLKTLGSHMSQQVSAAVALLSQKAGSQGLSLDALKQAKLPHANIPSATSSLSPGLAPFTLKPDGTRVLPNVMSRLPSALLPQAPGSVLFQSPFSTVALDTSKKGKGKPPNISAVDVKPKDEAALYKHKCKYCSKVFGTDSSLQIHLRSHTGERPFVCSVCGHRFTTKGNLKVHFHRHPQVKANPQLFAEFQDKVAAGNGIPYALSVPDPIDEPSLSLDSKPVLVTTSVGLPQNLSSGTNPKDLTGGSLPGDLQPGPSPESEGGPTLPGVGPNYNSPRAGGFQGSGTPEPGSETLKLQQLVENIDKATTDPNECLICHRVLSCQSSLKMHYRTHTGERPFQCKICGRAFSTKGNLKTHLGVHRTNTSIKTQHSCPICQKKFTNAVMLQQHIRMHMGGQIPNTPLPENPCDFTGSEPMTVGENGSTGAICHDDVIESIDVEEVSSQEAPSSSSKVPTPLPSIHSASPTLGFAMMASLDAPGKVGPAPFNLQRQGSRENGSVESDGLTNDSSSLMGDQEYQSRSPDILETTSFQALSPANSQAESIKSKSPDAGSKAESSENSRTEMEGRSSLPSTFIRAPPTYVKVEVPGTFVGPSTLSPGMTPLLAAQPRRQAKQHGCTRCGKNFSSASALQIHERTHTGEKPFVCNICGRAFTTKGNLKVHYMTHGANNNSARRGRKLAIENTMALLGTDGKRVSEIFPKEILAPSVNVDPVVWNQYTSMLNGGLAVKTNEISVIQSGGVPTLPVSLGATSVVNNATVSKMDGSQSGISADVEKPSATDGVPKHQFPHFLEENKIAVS
Notes: 8-mer, flanks averaged, mean of replicates
| Strand | E-score |
| --- | --- |
| AAAAGCCC | -0.0704 |
| CACTTCCG | -0.121 |
| GAAGTGAA | 0.112 |
| GTAGGCCA | -0.111 |
| AGCTTCCC | -0.216 |
| AATGAAGT | 0.21 |
| GAAACTGA | -0.048 |
| GTCGTTAA | 0.186 |
| CCCAGCAG | -0.185 |
| ACTGCCTA | 0.0117 |
| GTTGCGTA | 0.0843 |
| GTTACCCA | -0.141 |
| GTGCGTAA | -0.0827 |
| GGTGAGAC | -0.186 |
| GCGGTGCC | -0.361 |
| GACTCACA | -0.0705 |
| GAACTTAA | 0.0122 |

Sample 3 — method: aptamer microarray, sandwich; molecule type: DNA with 2'F-ANA; sample: in vitro; concentration: 200 nM; with: Cy3 exosite-II aptamer, 400 nM; reading: higher = stronger binding; strand: GGTTGGTGTGGTTGG
Target: Prothrombin, mature alpha-thrombin (F2, Homo sapiens, UniProt P00734)
Notes: whole 15-mer aptamer, many near background
| Modification | mean fluorescence intensity |
| --- | --- |
| 2'F-ANA at 1 2 3 6 13 14 | 71.3 a.u. |
| 2'F-ANA at 1 2 3 4 5 7 9 11 12 15 | 121 a.u. |
| 2'F-ANA at 1 2 3 8 9 10 11 12 14 | 58.1 a.u. |
| 2'F-ANA at 2 3 4 5 6 8 9 12 13 | 114 a.u. |
| 2'F-ANA at 1 2 3 4 5 8 9 10 11 12 14 15 | 55.7 a.u. |
| 2'F-ANA at 3 4 5 6 8 9 12 14 15 | 97.5 a.u. |
| 2'F-ANA at 1 2 3 4 6 9 11 13 | 92.4 a.u. |
| 2'F-ANA at 3 9 13 15 | 842 a.u. |
| 2'F-ANA at 3 4 5 8 10 15 | 65.6 a.u. |
| 2'F-ANA at 3 7 9 11 13 14 | 540 a.u. |
| 2'F-ANA at 1 3 5 8 11 | 58.9 a.u. |
| 2'F-ANA at 2 4 8 9 11 12 14 | 115 a.u. |
| 2'F-ANA at 2 6 8 11 13 15 | 273 a.u. |
| 2'F-ANA at 1 2 3 8 9 14 | 223 a.u. |
| 2'F-ANA at 2 5 6 7 8 11 13 15 | 61.7 a.u. |
| 2'F-ANA at 1 6 8 9 11 13 | 141 a.u. |
| 2'F-ANA at 2 3 4 5 9 10 13 | 50 a.u. |
| 2'F-ANA at 5 7 8 10 12 14 15 | 44.6 a.u. |
| 2'F-ANA at 3 4 5 7 8 10 11 12 14 15 | 54.5 a.u. |
| 2'F-ANA at 2 3 4 5 6 7 8 11 12 14 15 | 56.5 a.u. |
| 2'F-ANA at 1 3 8 9 11 12 15 | 496 a.u. |
| 2'F-ANA at 2 3 4 6 9 10 15 | 224 a.u. |
| 2'F-ANA at 2 4 6 7 8 9 11 13 14 | 104 a.u. |
| 2'F-ANA at 1 2 3 6 7 8 9 13 14 15 | 71 a.u. |
| 2'F-ANA at 2 4 6 8 9 12 14 | 109 a.u. |

Sample 4 — method: protein binding microarray; molecule type: double-stranded DNA, one strand shown; sample: in vitro; concentration: not given; reference: not given; reading: higher = stronger binding
Target: Histone acetyltransferase KAT6A, winged helix 1, GST fusion (KAT6A, Homo sapiens, UniProt Q92794, residues 1-85)
Notes: 8-mer, flanks averaged, mean of 2 arrays, mostly near background
Residues (chain): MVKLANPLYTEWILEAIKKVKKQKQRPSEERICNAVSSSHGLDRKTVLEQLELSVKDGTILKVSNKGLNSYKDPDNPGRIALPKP
| Strand | E-score |
| --- | --- |
| AGGATGAC | -0.0459 |
| CCCCGTGC | 0.303 |
| CAGGAACA | -0.274 |
| CAACCCGG | 0.217 |
| AGCTCTTA | -0.0721 |
| AAGTGAGT | -0.206 |
| CCTAGTCC | -0.025 |
| GGCAATAC | 0.209 |
| CAACGGGA | 0.0584 |
| AGACGGGG | 0.202 |
| TACCGCCA | 0.175 |
| CAACCGTA | 0.0238 |
| AGTACTAC | -0.135 |
| ATTTCACG | 0.137 |
| ATTAACGA | -0.0601 |
| ACCCTAGT | -0.239 |
| ATCGAATC | 0.0221 |
| ACATTTGA | -0.0631 |
| AAGGTTCA | -0.183 |
| TCACCGCA | 0.0339 |
| GGGGAAGA | -0.078 |
| CACGAACA | -0.034 |
| AGAGGTCG | -0.063 |
| CAAAGATA | -0.165 |
| ACGTCCTC | -0.0421 |

Sample 5 — target: ATF2, bZIP domain (human); method: DHFR protein complementation; sample: yeast; reference: wild-type JUN-FOS pair; reading: higher = stronger binding
Notes: single substitutions, most at no-binding floor
Starting sequence: JUN, bZIP domain (human); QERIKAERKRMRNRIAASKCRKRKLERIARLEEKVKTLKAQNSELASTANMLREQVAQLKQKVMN; partner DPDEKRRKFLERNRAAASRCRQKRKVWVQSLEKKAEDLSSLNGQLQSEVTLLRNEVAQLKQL
| Variant | binding fitness |
| --- | --- |
| E44H | -1.5 natural log |
| T48Y | -1.53 natural log |
| L38M | -1.37 natural log |
| E32G | -1.43 natural log |
| E44G | -1.35 natural log |
| S47D | -1.36 natural log |
| E44V | -1.4 natural log |
| N42Q | -1.34 natural log |
| R53P | -1.51 natural log |
| T37W | -1.29 natural log |
| L59P | -1.63 natural log |
| E33D | -1.31 natural log |
| A49K | -1.47 natural log |
| M51R | -1.25 natural log |
| K39L | -1.32 natural log |
| S43P | -1.53 natural log |
| L38I | -1.45 natural log |
| E54R | -1.43 natural log |
| L52M | -1.4 natural log |
| Q41M | -1.36 natural log |

Sample 6 — target: CCND1, cyclin fold, Cln2 fusion (human); method: yeast growth competition, sequencing; sample: yeast; notes: strong parent motif; reference: not given; reading: higher = stronger binding
Starting sequence: INSM1 docking peptide (human); PKAIRKLHFEDEV
| Variant | normalised enrichment score |
| --- | --- |
| PQAIRKLHFEDEV [K2Q] | 3.68 |
| PKFIRKLHFEDEV [A3F] | 0.31 |
| PKAIRKLHHEDEV [F9H] | 0.128 |
| PKAIRKHHFEDEV [L7H] | -0.0941 |
| PKAIRKNHFEDEV [L7N] | 0.0791 |
| PKAIRKLHFEVEV [D11V] | 3.01 |
| PKAIRKLHFEDCV [E12C] | 4.51 |
| PKAIRKLHFEHEV [D11H] | 2.9 |
| PKAIRALHFEDEV [K6A] | 3.88 |
| PKAIRKLHFMDEV [E10M] | 2.84 |
| PKAINKLHFEDEV [R5N] | 0.252 |
| PKAIRYLHFEDEV [K6Y] | 2.95 |
| PKAIRKLHFEMEV [D11M] | 3.11 |
| PKARRKLHFEDEV [I4R] | 4.63 |
| PKAIRKLHFEFEV [D11F] | 3.14 |

Sample 7 — method: Sort-seq; item: YFP reporter; sample: E. coli; notes: PhoQ-PhoP variant library; with: 10 µM Mg2+; reference: high Mg2+ state; reading: higher = stronger signaling
Substance: PhoQ, residues 284 288 289 292 302 303 MLMVEA
| target | fold induction |
| --- | --- |
| PhoP, residues 12 14 15 18 19 LHHYF (Escherichia coli, UniProt P23836) | 1.71 |
| PhoP, residues 12 14 15 18 19 NFFVT (Escherichia coli, UniProt P23836) | 11.8 |
| PhoP, residues 12 14 15 18 19 TPWTL (Escherichia coli, UniProt P23836) | 16.5 |
